Assay results pooled from the literature.
Lines come from different studies, so protocols differ. Several values in a cell are separate wells, animals, samples, runs or records.

SMILES | system | conditions | scale | quantity | result
CC[C@H](C)[C@H](NC(=O)C[C@H](NC(=O)CN1CCN2CCN(CC1)CC(=O)[O][Al]([18F])[O]C(=O)C2)C(=O)O)C(=O)N[C@H]1CCc2cccc3c2N(C1=O)[C@H](C(=O)NCc1cn[nH]n1)C3 | Kunming mice | intravenous, 18.5 MBq, 925 MBq/kg, 18 days | baseline: saline | body weight | no effect
O=C1NC(=O)/C(=C/c2ccc3ncnc(N4CCC(F)CC4)c3n2)S1 | NSG mice | dose not given, day 3 | – | body weight | 22.7 g and 24.8 g and 22 g and 26.5 g
COc1cc(N2CCN(C(=O)C3CCCN3)CC2)ccc1Nc1ncc(Cl)c(Nc2ccccc2P(C)(C)=O)n1 (stereo not drawn) | nude mice, NCI-H3122 xenograft | intraperitoneal, 10 mg/kg every other day, day 7 | – | body weight | 22.8 g and 27.1 g and 24.9 g and 24.5 g and 25.5 g
CC[C@H](C)NCC(SS(=O)(=O)O)c1ccccc1 (stereo partly drawn) | Swiss Webster mice, Schistosoma mansoni infected | 100 mg/kg | baseline: vehicle control | body weight decrease | -9.51%
COc1ccc(CNc2nc([C@H]3CC[C@H](C(=O)O)CC3)nc3sc4ccccc4c23)cc1Cl | NSG mice | dose not given, day 4 | – | body weight | 22.1 g and 21.5 g and 19.2 g and 21.6 g
CC(C)NCC(SS(=O)(=O)O)c1ccccc1 (stereo not drawn) | Swiss Webster mice, Schistosoma mansoni infected | 100 mg/kg | baseline: vehicle control | body weight decrease | 5.55%
Cc1cnc2nc1Nc1cccc(c1)COC/C=C/COCc1cc(ccc1OCCN1CCOCC1)N2 | BALB/c mice, rhEPO-induced polycythemia | 100 mg/kg, day 1 | – | body weight | 18.5 g and 18.2 g and 18.8 g and 18 g and 19.4 g and 17.9 g
CCCCCCC(CSS(=O)(=O)O)NCC(C)C (stereo not drawn) | Swiss Webster mice, Schistosoma mansoni infected | 100 mg/kg | baseline: vehicle control | body weight decrease | 9%
CC(=O)N1CCN(C(=O)c2ccc(Nc3nccc(-c4ccc(Cl)cc4)n3)cc2)CC1 | NSG mice | dose not given, day 2 | – | body weight | 22.3 g and 24.4 g and 24 g and 24.2 g
